Experimental data gathered from unrelated publications.
Compare with care: the assays were run in different laboratories.

Compound | target or system | assay | test system | conditions | quantity | result
[O-][S+]1CCc2nc(N3CCC(c4ncc(Cl)cn4)CC3)nc(NC3(CO)CCC3)c21 (centres unmarked) |  | item: Nausea | healthy male humans | 12 mg twice daily | adverse event incidence | 0%
C[C@@H]1C[C@H]2[C@@H]3CCC4=CC(=O)C=C[C@]4(C)[C@@]3(F)[C@@H](O)C[C@]2(C)[C@@]1(O)C(=O)CO | human coronavirus OC43 | virus-induced cell killing | MRC-5 | screen | maximum inhibition | 5.96%
O=C(Nc1ccccc1)C1CCN(C(=O)Oc2cccnc2)CC1 |  | item: Disorientation | healthy female human | concentration not given, all doses pooled | adverse event incidence | 8%
Cc1cccc(Cn2nc(C3CC3)c3c(NC(=O)c4cnc5cc(OCCN6CCN(C)CC6)ccn45)cccc32)n1 |  | item: Fatigue | human advanced solid tumours | oral, 400 mg, all-causality | adverse events incidence | 42.9%
O=c1ccc2ncc(=O)n3c2n1C[C@H]3CN1CCC(NCc2cc3c(cn2)OCCC3)CC1 |  | item: general administration site conditions | healthy human participants | oral, 1500 mg, together with: rifampicin 600 mg | adverse event incidence | 0%
CC1(C)CCC2=C(O1)c1ccccc1C(=O)C2=O | human coronavirus OC43 | virus-induced cell killing | MRC-5 | screen | maximum inhibition | 17.9%
COc1ccc(C[C@@H]2NC(=O)[C@H]([C@@H](C)O)NC(=O)[C@@H]3[C@@H]4CCN3C(=O)[C@@H]3Cc5cn(c6ccc(F)cc56)CCCCCCN(Cc5ccc(cc5)CCNC(=O)[C@]5(C)CCCN5C2=O)C(=O)CCC(=O)N[C@@H](C)C(=O)N[C@H](CNC(=O)CCCCC[N+](C)(C)C)C(=O)N[C@@H](Cc2cccc(c2)CNC(=O)CO4)C(=O)N3)cc1 |  | item: blurred vision | human | Study-003 safety | adverse events | 3.2%
Cc1ncc2n1-c1ccc(Cl)cc1C(c1ccccc1F)=NC2 |  |  | healthy humans | oral, dose not given | adverse event Constipation | 0%
O=C(c1ccc(F)c(F)c1Nc1ccc(I)cc1F)N1CC(O)([C@@H]2CCCCN2)C1 |  |  | human patients | oral, 1 mg/kg, dose expansion | adverse events | 100%
C[C@@H](c1nc(-c2ccc(C#N)cc2)cs1)[C@](O)(Cn1cncn1)c1cc(F)ccc1F |  |  | healthy humans | oral, dose not given, together with: midazolam | adverse event Constipation | 8.7%
CC(=O)N(C)[C@H]1CCN(C(=O)c2cnc3c(c2)C[C@](C)(c2ccc(F)cc2)N3)C1 |  | item: muscle ache | human | oral, 30 mg once daily | adverse event duration | 12 days

A few entries again:
Compound | target or system | assay | test system | conditions | quantity | result
Cc1ncc2n1-c1ccc(Cl)cc1C(c1ccccc1F)=NC2 |  |  | healthy humans | oral, dose not given | adverse event Constipation | 0%
O=C(c1ccc(F)c(F)c1Nc1ccc(I)cc1F)N1CC(O)([C@@H]2CCCCN2)C1 |  |  | human patients | oral, 1 mg/kg, dose expansion | adverse events | 100%
